Measured values pooled from the literature.
Lines come from different studies, so protocols differ. ± marks the error that the study gave.
BCHE: Cholinesterase (BCHE, Homo sapiens, UniProt P06276)
MAOB: Amine oxidase [flavin-containing] B (MAOB, Homo sapiens, UniProt P27338)

Amino acid sequences for entries named in this document (tags omitted). A change or cut given only in a name is not applied to a line headed by its entry. Residues count along the entry.
UniProt P06276, whole entry, looked up: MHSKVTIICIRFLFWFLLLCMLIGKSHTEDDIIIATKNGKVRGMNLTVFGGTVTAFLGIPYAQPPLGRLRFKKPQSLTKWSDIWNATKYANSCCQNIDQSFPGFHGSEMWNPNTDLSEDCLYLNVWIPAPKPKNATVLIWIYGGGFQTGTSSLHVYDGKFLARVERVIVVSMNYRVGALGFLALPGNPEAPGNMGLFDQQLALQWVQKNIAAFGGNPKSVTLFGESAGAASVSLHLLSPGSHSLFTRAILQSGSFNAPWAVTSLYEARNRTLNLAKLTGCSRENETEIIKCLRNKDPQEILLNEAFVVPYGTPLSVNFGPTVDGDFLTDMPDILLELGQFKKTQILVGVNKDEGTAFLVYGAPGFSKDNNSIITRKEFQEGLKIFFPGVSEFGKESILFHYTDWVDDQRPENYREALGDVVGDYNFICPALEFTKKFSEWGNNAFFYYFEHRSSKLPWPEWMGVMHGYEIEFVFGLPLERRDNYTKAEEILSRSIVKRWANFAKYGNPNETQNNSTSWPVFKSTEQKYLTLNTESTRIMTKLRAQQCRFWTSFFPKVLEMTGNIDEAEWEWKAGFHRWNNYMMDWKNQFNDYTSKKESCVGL
UniProt P27338, whole entry: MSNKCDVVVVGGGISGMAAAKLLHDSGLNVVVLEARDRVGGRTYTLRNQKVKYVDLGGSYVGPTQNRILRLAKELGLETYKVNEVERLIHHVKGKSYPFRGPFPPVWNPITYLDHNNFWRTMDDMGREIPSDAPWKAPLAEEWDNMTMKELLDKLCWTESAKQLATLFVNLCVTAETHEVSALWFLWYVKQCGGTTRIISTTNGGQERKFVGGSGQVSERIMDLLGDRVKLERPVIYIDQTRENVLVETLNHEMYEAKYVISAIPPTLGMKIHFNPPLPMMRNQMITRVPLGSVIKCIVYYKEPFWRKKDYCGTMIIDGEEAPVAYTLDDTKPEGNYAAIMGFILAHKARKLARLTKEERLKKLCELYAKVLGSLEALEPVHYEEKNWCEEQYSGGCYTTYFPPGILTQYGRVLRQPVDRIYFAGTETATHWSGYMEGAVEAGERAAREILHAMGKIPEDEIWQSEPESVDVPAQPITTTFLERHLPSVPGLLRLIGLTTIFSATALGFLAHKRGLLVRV
UniProt P0ABB4, 2-460 limits assumed: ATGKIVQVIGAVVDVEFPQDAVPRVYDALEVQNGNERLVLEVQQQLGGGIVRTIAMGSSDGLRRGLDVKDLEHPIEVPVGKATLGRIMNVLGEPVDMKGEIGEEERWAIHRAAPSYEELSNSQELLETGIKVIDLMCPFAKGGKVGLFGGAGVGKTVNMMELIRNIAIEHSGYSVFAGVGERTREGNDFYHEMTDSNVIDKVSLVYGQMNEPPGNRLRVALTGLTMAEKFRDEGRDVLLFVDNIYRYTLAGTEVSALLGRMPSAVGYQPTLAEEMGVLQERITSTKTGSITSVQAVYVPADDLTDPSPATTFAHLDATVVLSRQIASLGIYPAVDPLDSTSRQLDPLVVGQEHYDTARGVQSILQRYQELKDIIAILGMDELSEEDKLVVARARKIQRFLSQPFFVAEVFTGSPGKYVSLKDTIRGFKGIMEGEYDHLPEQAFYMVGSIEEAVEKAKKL
UniProt O43353, whole entry: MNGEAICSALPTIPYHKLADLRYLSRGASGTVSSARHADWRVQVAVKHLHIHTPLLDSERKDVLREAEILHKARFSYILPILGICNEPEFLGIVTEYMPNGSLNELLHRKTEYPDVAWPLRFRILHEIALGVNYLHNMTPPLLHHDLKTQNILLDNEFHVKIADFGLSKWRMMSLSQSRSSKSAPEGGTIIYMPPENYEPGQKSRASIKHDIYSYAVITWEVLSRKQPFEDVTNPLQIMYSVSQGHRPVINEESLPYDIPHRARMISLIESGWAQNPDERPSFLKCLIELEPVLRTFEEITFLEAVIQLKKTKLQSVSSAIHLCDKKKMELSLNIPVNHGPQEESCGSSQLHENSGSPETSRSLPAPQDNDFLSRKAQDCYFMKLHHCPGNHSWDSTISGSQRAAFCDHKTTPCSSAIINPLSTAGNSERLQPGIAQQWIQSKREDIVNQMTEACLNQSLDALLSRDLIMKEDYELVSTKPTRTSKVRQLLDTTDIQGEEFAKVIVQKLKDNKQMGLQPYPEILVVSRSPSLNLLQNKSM
UniProt Q00534, whole entry: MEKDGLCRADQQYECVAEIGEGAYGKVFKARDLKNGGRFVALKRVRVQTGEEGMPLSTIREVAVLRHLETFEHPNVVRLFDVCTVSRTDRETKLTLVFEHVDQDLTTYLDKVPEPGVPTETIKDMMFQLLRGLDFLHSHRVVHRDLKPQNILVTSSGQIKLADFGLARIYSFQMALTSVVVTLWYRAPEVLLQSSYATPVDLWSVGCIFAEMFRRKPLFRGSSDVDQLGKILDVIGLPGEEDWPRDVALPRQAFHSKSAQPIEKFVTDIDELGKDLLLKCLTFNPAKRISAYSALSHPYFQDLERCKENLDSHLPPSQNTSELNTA
UniProt P0A800, whole entry, stated change not applied: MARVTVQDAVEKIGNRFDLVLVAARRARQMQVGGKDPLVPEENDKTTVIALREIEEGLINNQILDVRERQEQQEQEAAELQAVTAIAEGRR
UniProt P0A8T7, whole entry, stated change not applied: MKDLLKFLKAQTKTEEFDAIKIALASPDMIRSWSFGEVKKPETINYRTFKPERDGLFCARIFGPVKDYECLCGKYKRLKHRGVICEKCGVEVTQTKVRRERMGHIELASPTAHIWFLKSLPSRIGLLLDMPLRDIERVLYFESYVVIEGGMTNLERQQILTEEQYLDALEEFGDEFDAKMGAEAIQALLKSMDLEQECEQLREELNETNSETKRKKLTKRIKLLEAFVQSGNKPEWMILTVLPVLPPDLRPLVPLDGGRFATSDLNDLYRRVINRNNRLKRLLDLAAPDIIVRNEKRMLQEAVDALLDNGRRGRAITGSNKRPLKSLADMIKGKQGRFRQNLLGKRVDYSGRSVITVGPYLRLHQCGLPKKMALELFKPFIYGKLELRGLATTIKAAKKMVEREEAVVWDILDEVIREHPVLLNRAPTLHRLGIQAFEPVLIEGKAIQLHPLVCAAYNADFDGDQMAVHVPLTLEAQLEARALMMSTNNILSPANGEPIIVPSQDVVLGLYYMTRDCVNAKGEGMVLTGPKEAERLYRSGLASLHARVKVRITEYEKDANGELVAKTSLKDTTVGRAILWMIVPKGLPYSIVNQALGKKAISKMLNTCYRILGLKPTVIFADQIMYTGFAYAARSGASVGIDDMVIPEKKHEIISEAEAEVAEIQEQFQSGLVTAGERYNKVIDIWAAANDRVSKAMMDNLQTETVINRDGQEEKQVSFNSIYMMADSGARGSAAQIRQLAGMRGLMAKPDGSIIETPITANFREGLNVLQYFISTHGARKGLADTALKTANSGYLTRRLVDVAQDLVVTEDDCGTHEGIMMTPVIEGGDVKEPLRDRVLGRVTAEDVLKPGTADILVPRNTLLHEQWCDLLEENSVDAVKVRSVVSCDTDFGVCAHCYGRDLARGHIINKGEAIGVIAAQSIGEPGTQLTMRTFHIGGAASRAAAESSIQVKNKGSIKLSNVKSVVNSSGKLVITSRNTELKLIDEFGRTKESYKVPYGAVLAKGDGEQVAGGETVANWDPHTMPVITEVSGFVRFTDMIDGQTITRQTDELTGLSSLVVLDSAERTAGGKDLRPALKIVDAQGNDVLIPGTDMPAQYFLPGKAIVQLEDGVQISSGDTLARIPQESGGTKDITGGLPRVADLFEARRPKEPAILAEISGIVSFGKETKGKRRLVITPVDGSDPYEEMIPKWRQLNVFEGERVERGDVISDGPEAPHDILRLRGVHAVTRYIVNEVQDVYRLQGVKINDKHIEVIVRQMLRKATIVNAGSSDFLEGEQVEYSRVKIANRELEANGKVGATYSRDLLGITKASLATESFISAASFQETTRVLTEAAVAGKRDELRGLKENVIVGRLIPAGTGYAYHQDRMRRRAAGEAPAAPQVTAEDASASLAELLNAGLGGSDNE
UniProt P0A8V2, whole entry S531L: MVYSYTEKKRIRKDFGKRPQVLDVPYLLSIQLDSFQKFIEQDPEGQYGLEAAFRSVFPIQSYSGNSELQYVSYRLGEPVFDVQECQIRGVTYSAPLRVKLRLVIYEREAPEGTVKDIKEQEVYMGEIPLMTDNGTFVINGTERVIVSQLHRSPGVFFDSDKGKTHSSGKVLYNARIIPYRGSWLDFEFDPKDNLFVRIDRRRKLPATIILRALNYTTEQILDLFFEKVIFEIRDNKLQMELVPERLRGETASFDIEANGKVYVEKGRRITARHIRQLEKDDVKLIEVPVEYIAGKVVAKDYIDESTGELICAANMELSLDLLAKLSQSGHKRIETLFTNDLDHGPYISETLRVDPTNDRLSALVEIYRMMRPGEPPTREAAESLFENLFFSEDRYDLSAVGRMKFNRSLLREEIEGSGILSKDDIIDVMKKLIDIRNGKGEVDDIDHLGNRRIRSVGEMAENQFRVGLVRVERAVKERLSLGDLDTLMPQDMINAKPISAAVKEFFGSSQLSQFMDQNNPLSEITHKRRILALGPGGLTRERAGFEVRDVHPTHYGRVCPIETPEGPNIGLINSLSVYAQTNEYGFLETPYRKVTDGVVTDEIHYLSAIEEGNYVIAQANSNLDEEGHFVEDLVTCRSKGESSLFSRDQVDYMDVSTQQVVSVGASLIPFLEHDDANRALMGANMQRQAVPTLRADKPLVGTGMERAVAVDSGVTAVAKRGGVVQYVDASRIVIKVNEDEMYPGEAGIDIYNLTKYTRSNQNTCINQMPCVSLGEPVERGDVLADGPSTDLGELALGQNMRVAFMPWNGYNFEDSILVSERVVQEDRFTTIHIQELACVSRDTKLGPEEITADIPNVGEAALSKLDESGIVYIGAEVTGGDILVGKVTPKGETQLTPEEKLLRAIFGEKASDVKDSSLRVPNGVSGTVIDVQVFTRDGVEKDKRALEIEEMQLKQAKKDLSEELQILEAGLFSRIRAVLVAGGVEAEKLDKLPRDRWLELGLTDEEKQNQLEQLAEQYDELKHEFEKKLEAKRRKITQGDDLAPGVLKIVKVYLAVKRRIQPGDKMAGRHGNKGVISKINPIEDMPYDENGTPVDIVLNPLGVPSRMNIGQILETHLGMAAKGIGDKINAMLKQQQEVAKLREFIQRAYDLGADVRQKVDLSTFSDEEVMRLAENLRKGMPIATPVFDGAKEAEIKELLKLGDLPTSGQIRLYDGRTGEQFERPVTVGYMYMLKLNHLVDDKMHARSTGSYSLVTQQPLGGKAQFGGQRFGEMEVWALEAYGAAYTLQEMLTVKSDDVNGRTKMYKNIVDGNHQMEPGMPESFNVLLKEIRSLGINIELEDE
UniProt P0ADG7, whole entry S250A/L444Y: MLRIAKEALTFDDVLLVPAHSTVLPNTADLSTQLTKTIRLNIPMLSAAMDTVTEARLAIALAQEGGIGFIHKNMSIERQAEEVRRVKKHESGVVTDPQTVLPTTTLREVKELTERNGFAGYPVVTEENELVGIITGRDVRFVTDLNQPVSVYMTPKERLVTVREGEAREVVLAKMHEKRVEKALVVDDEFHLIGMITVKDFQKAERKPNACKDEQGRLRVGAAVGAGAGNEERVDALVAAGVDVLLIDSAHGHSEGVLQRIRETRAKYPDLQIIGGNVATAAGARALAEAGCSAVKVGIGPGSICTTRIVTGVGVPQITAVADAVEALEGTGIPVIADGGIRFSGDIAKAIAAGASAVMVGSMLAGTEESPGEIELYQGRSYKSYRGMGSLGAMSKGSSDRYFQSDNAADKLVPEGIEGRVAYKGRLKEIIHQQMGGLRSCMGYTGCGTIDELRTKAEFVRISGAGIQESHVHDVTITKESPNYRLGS
UniProt P51812, whole entry: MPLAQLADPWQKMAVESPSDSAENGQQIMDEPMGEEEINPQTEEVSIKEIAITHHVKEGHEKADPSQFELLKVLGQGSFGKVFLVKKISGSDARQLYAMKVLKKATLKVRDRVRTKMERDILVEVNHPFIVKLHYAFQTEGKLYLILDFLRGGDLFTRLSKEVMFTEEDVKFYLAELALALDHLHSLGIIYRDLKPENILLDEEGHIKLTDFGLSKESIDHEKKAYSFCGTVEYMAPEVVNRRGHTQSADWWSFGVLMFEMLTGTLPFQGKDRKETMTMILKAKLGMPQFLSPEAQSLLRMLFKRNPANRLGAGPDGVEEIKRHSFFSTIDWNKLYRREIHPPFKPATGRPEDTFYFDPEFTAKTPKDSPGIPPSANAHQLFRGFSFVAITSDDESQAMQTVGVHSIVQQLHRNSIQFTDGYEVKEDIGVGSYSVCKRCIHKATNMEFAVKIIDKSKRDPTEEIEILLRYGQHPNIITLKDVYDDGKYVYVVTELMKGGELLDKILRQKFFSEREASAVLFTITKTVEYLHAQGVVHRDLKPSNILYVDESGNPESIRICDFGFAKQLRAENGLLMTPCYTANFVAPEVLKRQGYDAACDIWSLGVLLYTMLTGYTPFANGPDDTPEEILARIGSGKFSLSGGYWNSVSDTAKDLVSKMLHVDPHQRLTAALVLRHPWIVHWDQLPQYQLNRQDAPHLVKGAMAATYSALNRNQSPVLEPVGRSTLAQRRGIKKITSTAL

SMILES	target	test	system	setting	how to read	measurement	value
CCN1CCN(Cc2ccc(NC(=O)c3ccc(C)c(/C=C/c4cnc5[nH]ccc5c4OC)c3)cc2C(F)(F)F)CC1	Mitogen-activated protein kinase kinase kinase 20 (MAP3K20, Homo sapiens, UniProt Q9NYL2)	inhibitor, kinome profiling	human cells	5 µM	relative to: vehicle	log2 fold change	0.242
CC[C@@H](C)[C@@H](NC(=O)C(O)Cc1ccc(O)c(Cl)c1)C(=O)N1C(C(=O)NCCCCN=C(N)N)CC2CCC(OS(=O)(=O)O)CC21 (some centres unmarked)	Prothrombin (F2, Bos taurus, UniProt P00735)	enzyme activity, inhibitor				IC50	2.5 µg/mL
CCN(CC)c1ccc2c(O)c(C=Nc3ccc(CC(=O)NNc4c5c(nc6ccccc46)CCCC5)cc3)c(=O)oc2c1	BCHE	enzyme activity, inhibitor		Triton-containing buffer		IC50	0.24 ± 0.04 µM
CCCCCCC1c2ccc(O)cc2Oc2cc(O)ccc21	atpA/atpD (Escherichia coli, UniProt P0ABB0+P0ABB4)	ATPase activity, inhibitor				IC50	> 200 µM
O=C(NCc1ccc2c(c1)OCO2)C(=O)Nc1ccccc1	MAOB	enzyme activity, inhibitor, fluorescence		recombinant human enzyme, added: kynuramine 20 µM		IC50	0.243 µM
CCOc1ccc2cc(-c3nn(CC4CCN(C)CC4)c4ncnc(N)c34)ccc2n1	Receptor-interacting serine/threonine-protein kinase 2 (RIPK2, Homo sapiens, UniProt O43353)	kinase activity, inhibitor		kinase panel profiling		IC50	0.775 µM
O=C(Nc1nc(-c2ccc3ccccc3c2)cs1)c1cccs1	MAOB	enzyme activity, inhibitor, fluorescence		recombinant human enzyme, added: kynuramine 20 µM		IC50	40.1 µM
Cc1ccc(S(=O)(=O)Nc2ccccc2N2CCCCC2)s1	BCHE	enzyme activity, inhibitor				IC50	17.9 ± 2.29 µM
Fc1cccc(-n2cnc3c(NCc4nc5cc(Cl)ccc5[nH]4)nc(N4CCNCC4)nc32)c1	Cyclin-dependent kinase 6, with cyclin D1 (CDK6, Homo sapiens, UniProt Q00534)	enzyme activity, inhibitor				IC50	1.24 µM
Nc1ncnc2c1ncn2[C@@H]1O[C@H](CSCCCNC(=O)NCc2ccc3c(c2)OCO3)[C@@H](O)[C@H]1O	METTL5, part with Trm112 (Homo sapiens, UniProt Q9NRN9)	methyltransferase activity, inhibitor, MTase-Glo				IC50	8 µM
CC(C)Cc1nnc2c(C(=O)NC3c4ccccc4-c4ccccc43)cccn12	rpoZ/rpoC/rpoB (Escherichia coli, UniProt P0A800+P0A8T7+P0A8V2, S531L)	enzyme activity, inhibitor		rifampicin-resistant RNA polymerase		IC50	4 µM
O=C(COc1ccccc1Cl)N1CCN(c2ccc3nncn3n2)CC1	MAOB	enzyme activity, inhibitor, fluorescence		recombinant human enzyme, added: kynuramine 20 µM		IC50	16.4 µM
O=C(N/N=C/c1cc([N+](=O)[O-])ccc1O)c1ccc(O)cc1O	D-3-phosphoglycerate dehydrogenase (PHGDH, Homo sapiens, UniProt O43175, R135A)	enzyme activity, inhibitor		R134A mutant		IC50	141 ± 4 µM
O=C(Cn1c(-c2ccccn2)nc2ccccc21)Nc1ccc2ccccc2c1	Inosine-5'-monophosphate dehydrogenase (guaB, Escherichia coli K-12, UniProt P0ADG7, L444Y/S250A)	enzyme activity, inhibitor				IC50	0.0019 µM
O=C(Cc1ccccc1)N1CCN(c2nc3ccccc3s2)CC1	MAOB	enzyme activity, inhibitor, fluorescence		recombinant human enzyme, added: kynuramine 20 µM		IC50	19.7 µM
CC#C/C(=N\OC[C@H]1COCCN1)c1ccc2ncnc(Nc3ccc(OCc4cccc(F)c4)c(Cl)c3)c2c1	Ribosomal protein S6 kinase alpha-3 (RPS6KA3, Homo sapiens, UniProt P51812)	kinase activity		10 µM		inhibition	-0.9%
O=C(NOCC1CC1)c1cc(Br)c(F)c(F)c1Nc1ccc(I)cc1Cl	BCHE	enzyme activity, inhibitor				IC50	23.4 ± 1.53 µM
